Published values pooled from the literature.
Each numbered part is a random draw from the data of one study; scales do not carry over between parts. Substitutions count along the parent as printed.

Study 1 — effect on: peptide-MHC binding; form: peptide; tested at: concentration not given
Target: HLA class I histocompatibility antigen, A alpha chain, allele A*25:01 (Homo sapiens, UniProt P04439)
Sequence	binding
SAEVVTLWY	inactive
RNMSRIFPY	inactive
YLQYSISTA	inactive
FLRKNQRAL	inactive
GMWCVLASR	inactive
KTVRYWHRF	inactive

Study 2 — target: CCND3, cyclin fold, Cln2 fusion (human); technique: yeast growth competition, sequencing; medium: yeast; notes: weak parent motif; reference: not given; reading: higher = stronger binding; starting sequence: viral docking peptide; KKAKRRLFTISDS
Substitution	normalised enrichment score
AKAKRRLFTISDS [K1A]	0.113
KKAKARAFTISDS [R5A L7A]	-0.0997
KKAKRRLLTISDS [F8L]	0.664
KKAKRRLFTISDA [S13A]	0.168
KKAKKRLFTISDS [R5K]	0.063
KKAKRRLFTIADS [S11A]	0.184
KKAKARLFTISDS [R5A]	0.194
KKAARRLFTISDS [K4A]	0.159
KKAKRRLFTISAS [D12A]	0.111

Study 3 — target: UBE2D4 UBC core domain (UniProt Q9Y2X8); technique: yeast two-hybrid; medium: yeast; notes: mostly zero background; reference: not given; reading: higher = stronger interaction
B1: RNF31 RING domain (UniProt Q96EP0); chain AFLRRLLAQECAVCGWALPHNRMQALTSCECTICPDCFRQHFTIALKEKHITDMVCPACGRPDLTDDTQLL
B2: TRIM31 RING domain (UniProt Q9BZY9); chain FVNKLQEEVICPICLDILQKPVTIDCGHNFCLKCITQIGETSCGFFKCPLCKTSVRKNAIRF
B3: RNF187 RING domain (UniProt Q5TA31); chain ALPAGPAEAACALCQRAPREPVRADCGHRFCRACVVRFWAEEDGPFPCPECADDCWQRAVEP
B4: TRIM60 RING domain (UniProt Q495X7); chain ALVNLQEESSCPICLEYLKDPVTINCGHNFCRSCLSVSWKDLDDTFPCPVCRFCFPYKSFRR
B5: TRIM26 RING domain (UniProt Q12899); chain PLRSLEEEVTCSICLDYLRDPVTIDCGHVFCRSCTTDVRPISGSRPVCPLCKKPFKKENIRP
Target sequence (chain): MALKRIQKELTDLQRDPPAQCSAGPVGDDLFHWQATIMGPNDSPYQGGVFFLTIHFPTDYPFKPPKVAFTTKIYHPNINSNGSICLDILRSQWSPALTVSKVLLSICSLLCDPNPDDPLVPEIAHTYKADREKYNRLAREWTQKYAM
Sequence	lacZ reporter activity
B1 (RNF31 RING domain)	0
B2 (TRIM31 RING domain)	0
LGTKLEAKYLCSACRNVLRRPFQAQCGHRYCSFCLASILSSGPQNCAACVHEGIYEEGIS (TRAF2 RING domain (UniProt Q12933))	0
AEADPLGRFTCPVCLEVYEKPVQVPCGHVFCSACLQECLKPKKPVCGVCRSALAPGVRAV (RNF114 RING domain (UniProt Q9Y508))	0
B3 (RNF187 RING domain)	0
B4 (TRIM60 RING domain)	0
B5 (TRIM26 RING domain)	0

Other studies, line by line — technique: cross-linking MS; NIP7: NIP7 (Homo sapiens, UniProt Q9Y221)
Molecule	partner	medium	notes	together with	endpoint	value
SYF2 (Homo sapiens, UniProt O95926)	CRNKL1 (Homo sapiens, UniProt Q9BZJ0)		hits only		interaction screen	cross-linked
NSA2 (Homo sapiens, UniProt O95478)	NIP7	cell fractions		DSSO	cross-linked residues	K134 to K100
NDUFS5 (Homo sapiens, UniProt O43920)	NDUFA13 (Homo sapiens, UniProt Q9P0J0)	cell fractions		DSSO	cross-linked residues	K91 to K99
NOC3L (Homo sapiens, UniProt Q8WTT2)	NIP7	cell fractions		DSSO	cross-linked residues	K616 to K100

For quick reference, copied from above (study 2):
Substitution	normalised enrichment score
KKAARRLFTISDS [K4A]	0.159
